Assay results of several laboratories.
A part holds a random share of what one study measured. Values joined by “and” are separate records of one study, mostly repeats; a detail may differ. ± gives the spread as reported.
Sequence of UniProt Q6P3R8 (whole entry, looked up): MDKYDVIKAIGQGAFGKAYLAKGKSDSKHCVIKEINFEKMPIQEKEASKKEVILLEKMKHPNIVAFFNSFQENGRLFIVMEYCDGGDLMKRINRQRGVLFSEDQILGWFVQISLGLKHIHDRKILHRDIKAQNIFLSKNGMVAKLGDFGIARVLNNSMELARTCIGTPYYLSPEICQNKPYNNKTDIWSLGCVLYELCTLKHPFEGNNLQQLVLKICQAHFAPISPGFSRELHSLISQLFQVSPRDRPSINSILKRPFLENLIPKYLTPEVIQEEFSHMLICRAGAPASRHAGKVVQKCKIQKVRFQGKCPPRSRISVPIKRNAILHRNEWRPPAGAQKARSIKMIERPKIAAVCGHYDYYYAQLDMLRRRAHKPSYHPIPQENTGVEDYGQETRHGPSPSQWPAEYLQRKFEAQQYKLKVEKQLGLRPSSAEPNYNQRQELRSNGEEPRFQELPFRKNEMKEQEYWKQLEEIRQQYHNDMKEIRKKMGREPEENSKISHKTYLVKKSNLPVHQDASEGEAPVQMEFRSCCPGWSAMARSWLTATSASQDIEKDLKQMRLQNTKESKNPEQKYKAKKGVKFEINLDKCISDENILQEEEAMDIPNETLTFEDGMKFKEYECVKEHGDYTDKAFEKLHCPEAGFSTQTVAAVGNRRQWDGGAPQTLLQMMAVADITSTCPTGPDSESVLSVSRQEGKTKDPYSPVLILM
Sequence of UniProt Q9BYP7 (whole entry, looked up): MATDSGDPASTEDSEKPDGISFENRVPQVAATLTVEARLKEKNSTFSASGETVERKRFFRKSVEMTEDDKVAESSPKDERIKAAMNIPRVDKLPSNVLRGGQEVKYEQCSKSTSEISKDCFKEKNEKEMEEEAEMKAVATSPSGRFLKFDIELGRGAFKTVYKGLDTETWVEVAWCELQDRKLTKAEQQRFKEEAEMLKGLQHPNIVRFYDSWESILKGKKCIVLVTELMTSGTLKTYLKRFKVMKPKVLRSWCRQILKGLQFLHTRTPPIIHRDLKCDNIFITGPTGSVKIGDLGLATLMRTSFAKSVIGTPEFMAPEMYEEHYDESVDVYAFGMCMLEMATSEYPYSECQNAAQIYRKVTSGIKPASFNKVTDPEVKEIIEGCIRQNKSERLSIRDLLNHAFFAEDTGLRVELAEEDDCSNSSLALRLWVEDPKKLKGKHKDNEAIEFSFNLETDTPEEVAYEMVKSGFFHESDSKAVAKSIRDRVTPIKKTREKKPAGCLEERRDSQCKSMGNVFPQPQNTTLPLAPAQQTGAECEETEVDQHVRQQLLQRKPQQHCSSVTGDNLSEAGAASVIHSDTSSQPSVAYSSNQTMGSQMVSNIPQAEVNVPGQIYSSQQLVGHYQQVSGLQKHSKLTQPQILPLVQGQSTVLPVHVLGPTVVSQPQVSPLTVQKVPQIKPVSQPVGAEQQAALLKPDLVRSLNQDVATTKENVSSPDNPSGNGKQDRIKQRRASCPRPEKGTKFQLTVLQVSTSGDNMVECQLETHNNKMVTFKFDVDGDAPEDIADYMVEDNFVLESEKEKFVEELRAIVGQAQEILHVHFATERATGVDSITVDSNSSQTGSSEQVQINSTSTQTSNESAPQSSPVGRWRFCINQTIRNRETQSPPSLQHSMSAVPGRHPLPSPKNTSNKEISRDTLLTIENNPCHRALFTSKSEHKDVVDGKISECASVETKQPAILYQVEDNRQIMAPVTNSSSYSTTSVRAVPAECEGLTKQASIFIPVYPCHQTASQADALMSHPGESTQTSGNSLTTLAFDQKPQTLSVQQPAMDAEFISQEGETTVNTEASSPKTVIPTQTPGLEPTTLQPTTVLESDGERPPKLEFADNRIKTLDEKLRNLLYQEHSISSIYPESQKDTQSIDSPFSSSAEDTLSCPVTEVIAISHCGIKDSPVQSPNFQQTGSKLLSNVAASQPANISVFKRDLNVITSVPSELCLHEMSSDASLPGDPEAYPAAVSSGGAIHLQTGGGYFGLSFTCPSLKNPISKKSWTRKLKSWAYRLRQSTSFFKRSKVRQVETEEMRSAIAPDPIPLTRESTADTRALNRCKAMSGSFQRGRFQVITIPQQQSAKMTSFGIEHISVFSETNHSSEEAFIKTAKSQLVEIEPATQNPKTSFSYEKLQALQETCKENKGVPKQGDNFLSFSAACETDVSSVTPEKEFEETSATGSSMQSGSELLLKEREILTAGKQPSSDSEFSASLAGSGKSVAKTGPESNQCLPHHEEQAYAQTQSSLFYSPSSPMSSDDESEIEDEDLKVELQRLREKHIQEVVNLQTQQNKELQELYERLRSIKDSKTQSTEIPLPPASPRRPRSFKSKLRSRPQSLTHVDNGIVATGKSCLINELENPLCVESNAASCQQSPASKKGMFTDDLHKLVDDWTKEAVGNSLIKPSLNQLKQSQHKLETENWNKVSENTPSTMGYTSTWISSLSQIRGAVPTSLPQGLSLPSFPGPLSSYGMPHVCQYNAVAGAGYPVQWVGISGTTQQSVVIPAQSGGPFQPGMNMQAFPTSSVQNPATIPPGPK
Sequence of UniProt Q15831 (whole entry, looked up): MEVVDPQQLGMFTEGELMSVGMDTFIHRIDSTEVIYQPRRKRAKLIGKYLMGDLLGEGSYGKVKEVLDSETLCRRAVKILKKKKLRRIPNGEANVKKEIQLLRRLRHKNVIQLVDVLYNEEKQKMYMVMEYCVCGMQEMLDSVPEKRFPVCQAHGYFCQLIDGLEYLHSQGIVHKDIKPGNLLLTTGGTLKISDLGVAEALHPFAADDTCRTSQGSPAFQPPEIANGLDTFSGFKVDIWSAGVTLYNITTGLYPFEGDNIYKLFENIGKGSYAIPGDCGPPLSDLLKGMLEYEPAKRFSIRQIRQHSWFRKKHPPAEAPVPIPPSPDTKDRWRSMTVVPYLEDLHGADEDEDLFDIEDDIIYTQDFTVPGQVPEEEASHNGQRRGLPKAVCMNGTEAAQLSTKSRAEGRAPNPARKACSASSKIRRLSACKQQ
Sequence of UniProt Q9UQB9 (whole entry, looked up): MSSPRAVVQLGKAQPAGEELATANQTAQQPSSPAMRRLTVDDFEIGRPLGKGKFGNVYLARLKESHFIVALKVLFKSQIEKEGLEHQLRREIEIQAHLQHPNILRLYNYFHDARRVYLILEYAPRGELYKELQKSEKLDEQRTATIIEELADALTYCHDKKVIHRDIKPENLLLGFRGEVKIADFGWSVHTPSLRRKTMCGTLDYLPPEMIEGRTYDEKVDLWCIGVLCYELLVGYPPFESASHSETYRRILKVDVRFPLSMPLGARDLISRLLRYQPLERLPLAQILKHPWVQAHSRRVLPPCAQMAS
Sequence of UniProt Q14680 (whole entry, looked up): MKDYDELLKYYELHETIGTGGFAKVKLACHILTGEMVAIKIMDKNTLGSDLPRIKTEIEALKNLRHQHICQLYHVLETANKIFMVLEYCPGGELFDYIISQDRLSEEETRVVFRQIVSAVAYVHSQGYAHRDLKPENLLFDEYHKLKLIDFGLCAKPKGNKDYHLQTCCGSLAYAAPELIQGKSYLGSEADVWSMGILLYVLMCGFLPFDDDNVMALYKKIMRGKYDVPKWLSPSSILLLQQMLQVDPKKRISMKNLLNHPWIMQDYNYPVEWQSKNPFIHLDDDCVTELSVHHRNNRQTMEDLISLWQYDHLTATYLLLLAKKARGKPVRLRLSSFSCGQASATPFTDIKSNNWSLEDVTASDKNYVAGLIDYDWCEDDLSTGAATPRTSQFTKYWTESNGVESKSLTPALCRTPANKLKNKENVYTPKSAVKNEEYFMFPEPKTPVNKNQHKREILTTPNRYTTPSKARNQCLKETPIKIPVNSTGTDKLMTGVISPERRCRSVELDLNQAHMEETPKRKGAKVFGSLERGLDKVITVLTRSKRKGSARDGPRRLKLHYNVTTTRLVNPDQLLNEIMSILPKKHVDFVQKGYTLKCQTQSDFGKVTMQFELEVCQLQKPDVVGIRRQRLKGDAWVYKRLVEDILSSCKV

Study 1
Organism: Sarcocystis neurona
Observed: parasite growth
Tested at: 10 µM
Time: 96 h
Relative to: untreated
SMILES	log2 fold change
Cc1c(O)c(=O)ccn1C	0.27
COC(=O)Nc1nc2cc(C(=O)c3ccc(F)cc3)ccc2[nH]1	-0.33
CN(C)CCCN1c2ccccc2Sc2ccc(Cl)cc21	-0.48
Cc1c(OCC(F)(F)F)ccnc1C[S+]([O-])c1nc2ccccc2[nH]1 (stereo not drawn)	1.05
CC(=O)N1CCN(c2ccc(OCC3COC(Cn4ccnc4)(c4ccc(Cl)cc4Cl)O3)cc2)CC1 (stereo not drawn)	-0.13
O=c1[nH]c(=O)n(C2CCCO2)cc1F (stereo not drawn)	-0.0751
O=C1NC(=O)C(c2ccccc2)(c2ccccc2)N1	-0.12
C[C@H]1O[C@H](O[C@H]2[C@H](O)[C@@H](O)[C@@H](O[C@H]3[C@H](O)[C@@H](O)C(O)O[C@@H]3CO)O[C@@H]2CO)[C@H](O)[C@@H](O)[C@@H]1N[C@H]1C=C(CO)[C@@H](O)[C@H](O)[C@H]1O (stereo partly drawn)	0.32
CCCCC(=O)N(Cc1ccc(-c2ccccc2-c2nnn[nH]2)cc1)[C@H](C(=O)O)C(C)C	0.23

Study 2
SMILES: Nc1cnc(N2CCc3cc(S(=O)(=O)Nc4c(F)cc(Cl)cc4F)cc(N4CCCC4=O)c32)nc1
Observed: cell-free assay
Technique: competition with immobilised ligand
Tested at: 1 µM
target	remaining binding
MYLK2 (Homo sapiens, UniProt Q9H1R3)	87%
STK11 (Homo sapiens, UniProt Q15831)	100%
EGFR (Homo sapiens, UniProt P00533, del746-750)	74%
MAP3K3 (Homo sapiens, UniProt Q99759)	97%
Receptor-type tyrosine-protein kinase FLT3, autoinhibited (FLT3, Homo sapiens, UniProt P36888)	91%
NEK5 (Homo sapiens, UniProt Q6P3R8)	100%
MAP4K2 (Homo sapiens, UniProt Q12851)	90%
Ribosomal protein S6 kinase alpha-4, N-terminal kinase domain (RPS6KA4, Homo sapiens, UniProt O75676)	100%
EPHA7 (Homo sapiens, UniProt Q15375)	85%
TTK (Homo sapiens, UniProt P33981)	90%
MAP3K19 (Homo sapiens, UniProt Q56UN5)	100%
EGFR (Homo sapiens, UniProt P00533, T790M)	88%
WNK3 (Homo sapiens, UniProt Q9BYP7)	100%
FGFR1 (Homo sapiens, UniProt P11362)	88%
Aurora kinase C (AURKC, Homo sapiens, UniProt Q9UQB9)	100%
AKT2 (Homo sapiens, UniProt P31751)	100%
MELK (Homo sapiens, UniProt Q14680)	90%

Study 3
Compound: COc1ccc(-c2c(Nc3ccccn3)[nH]c3c(C4=CCCCC4)c(-c4ccccc4)nn3c2=O)cc1
Technique: immunohistochemistry
Relative to: before treatment
Reading: direction not given
refers to	species	matrix	dose	setting	SDMA H-score change
–	cancer patients	paired tumour biopsies	200 mg twice daily	–	-25%
symmetric dimethylarginine	human cancer patients	tumour biopsy	200 mg QD	–	-98.8%
–	cancer patients	paired tumour biopsies	dose not given	all doses	-36.5 ± 14%

Study 4
SMILES: C[C@@H]1CN(c2ccc(-c3cc(C(=O)NCCOCCOCCOCCOCCOCCOCCNC(=O)/C=C/c4[nH]cc(C(=O)N[C@@H](CC(N)=O)c5ccc(F)c(Cl)c5)c4-c4ccc(Cl)cc4F)ccc3F)cc2NC(=O)c2ccc(F)cc2C(F)(F)F)C[C@H](C)N1C
Technique: ATPlite
cell line	matrix	tested at	time	relative to	viability
MV4-11 expressing HiBiT-WDR5	RPMI with 10% FBS	3800 nM	24 h	–	88.3% and 112% and 93.4%
MV4-11 expressing HiBiT-WDR5	RPMI with 10% FBS	2 nM	24 h	–	92% and 110% and 85.2%
MV4-11 expressing HiBiT-WDR5	RPMI with 10% FBS	1510 nM	24 h	–	110% and 109% and 104%
MV4-11	–	2.15 µM	5 days	DMSO	58.5% and 64.7% and 46.9% and 37.2%

Single results of other studies
SMILES	tested on	test system	conditions	how to read	measurement	value
CCOC(=O)[C@@H]1CSCC(=O)N[C@@H](CC)C(=O)N(C)[C@@H](C)C(=O)N[C@@H](CC(C)C)C(=O)N2CCC[C@H]2C(=O)N(CC)CC(=O)N[C@H](CC(C)C)C(=O)N(C)[C@@H](C)C(=O)N[C@@H](CC(C)C)C(=O)N1C	–	hydrocarbon/water	–	–	logD	0.0163
CC(C)n1cnc(-c2ccc(F)cc2)c1-c1ncc(C(=O)Nc2ccc(N3CCN(C)CC3)cc2)[nH]1	–	human, idiopathic pulmonary fibrosis	30 mg once daily, trial, treatment-emergent	–	patients with electrocardiogram QT prolonged	0%
c1ccc2c(-c3nn4c(-c5ccncc5)nnc4s3)c[nH]c2c1	α-galactosidase (human, wild type)	healthy dermal fibroblasts	0.5 µM, unit not given	relative to: DMSO	remaining activity	1.58 and 1.45 and 1.26 and 1.32 and 1.61 and 1.46

Some of these lines once more (study 3):
refers to	species	matrix	dose	setting	SDMA H-score change
symmetric dimethylarginine	human cancer patients	tumour biopsy	200 mg QD	–	-98.8%
–	cancer patients	paired tumour biopsies	200 mg twice daily	–	-25%
